Results from different studies.
Protocols differ between the studies behind these lines. Values joined by “and” are separate records of one study, mostly repeats; a detail may differ. Numbers after ± are the reported error.
NADH dehydrogenase [ubiquinone] iron-sulfur protein 7, mitochondrial/NADH dehydrogenase [ubiquinone] iron-sulfur protein 2, mitochondrial/MT-ND1: NADH dehydrogenase [ubiquinone] iron-sulfur protein 7, mitochondrial/NADH dehydrogenase [ubiquinone] iron-sulfur protein 2, mitochondrial/MT-ND1 (Homo sapiens, UniProt O75251+O75306+P03886)
FFAR4: Free fatty acid receptor 4 (FFAR4, Homo sapiens, UniProt Q5NUL3)
GAP50: Glideosome-associated protein 50 (GAP50, Plasmodium falciparum, UniProt Q8I2X3)
CAMK1D: Calcium/calmodulin-dependent protein kinase type 1D (CAMK1D, Homo sapiens, UniProt Q8IU85)
TRPM8: Transient receptor potential cation channel subfamily M member 8 (TRPM8, Homo sapiens, UniProt Q7Z2W7)
T1: riboswitch RNA yjdF aptamer (Bacillus subtilis); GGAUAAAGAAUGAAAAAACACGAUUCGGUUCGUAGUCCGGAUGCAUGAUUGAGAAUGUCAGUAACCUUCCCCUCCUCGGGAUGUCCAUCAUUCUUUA

Compound	target	assay	test system	setting	how to read	measurement	result
CN1CCN(c2cc(-c3ccncc3)c(-c3ccc4ccccc4c3)nn2)CC1	GIPR (Homo sapiens, UniProt P48546)	agonist, FLIPR	–	12.5 µM	–	activation	0.5%
O=S(=O)(O)C1CCNCC1	SLC6A6 (Homo sapiens, UniProt P31641, Y138A)	binding, microscale thermophoresis	–	46.3 nM, fitted curve	higher = more binding	fraction bound	0
NC(=O)NO	NADH dehydrogenase [ubiquinone] iron-sulfur protein 7, mitochondrial/NADH dehydrogenase [ubiquinone] iron-sulfur protein 2, mitochondrial/MT-ND1	complex I-dependent respiration, Seahorse XF96	HCT-116	30 µM, 24 h	baseline: control	oxygen consumption rate	77 ± 1.79%
CCN(CCO)CCCC(C)Nc1ccnc2cc(Cl)ccc12 (stereo not drawn)	SCN5A (Homo sapiens, UniProt Q14524)	sodium current, whole-cell patch clamp	–	300 µM, without ATX-II	–	inactivation slope factor	6.27 mV/e-fold and 6.9 mV/e-fold and 6.7 mV/e-fold
COC(=O)c1cn(C)c2ccc(-c3cccnc3)cc12	Nuclear receptor subfamily 4 group A member 2, LBD; with RXRα (Homo sapiens, UniProt P43354)	reporter gene, full-length heterodimer DR5 reporter	–	10 µM	baseline: vehicle	activation	0.95 fold
CCNC(=O)/C=C/c1cccc(Br)c1	SLC6A19 (Homo sapiens, UniProt Q695T7)	inhibitor, L-[14C]leucine uptake	CHO-BC cells	0.01 µM, 6 min, unit not given, with: GPNA 3 mM, JPH203 3 µM	baseline: uninhibited cells	remaining transport activity	0.905
O=C(O)C1=CC(=C(c2ccc(O)c(C(=O)O)c2)c2ccc(O)c(C(=O)O)c2)C=CC1=O	P2X purinoceptor 3 (P2RX3, Homo sapiens, UniProt P56373)	patch clamp	HEK293	4 µM, unit not given	baseline: baseline	remaining current	0.094 ± 0.009
C#CCN(CCCN1CCN(c2ccc(F)cc2)CC1)Cc1ccc(C(=O)c2ccc([N+](=O)[O-])cc2)cc1	TMEM97 (Homo sapiens, UniProt Q5BJF2)	radioligand binding	RT-4 cell membranes	–	baseline: sigma1 Ki over sigma2 Ki	Ki ratio	4.18
CCCCCCCCC(=O)c1cc(O)c(O)c(O)c1	Nuclear receptor subfamily 4 group A member 2 (Homo sapiens, UniProt P43354)	reporter gene, full-length homodimer NurRE reporter	–	10 µM	baseline: vehicle	activation	0.71 fold
O=c1cc(NCCc2ccc(F)cc2)[nH]c(=O)[nH]1	FFAR4	agonist, β-arrestin recruitment	CHO cells	10 µM	baseline: 30 µM TUG-891	agonist effect	2 ± 1%
Oc1ccc(/C=C/c2cc(O)cc(O)c2)cc1	O-methyltransferase (Sorghum bicolor, UniProt A0A1B6PFV1)	–	–	with: methionine 1 mM	–	cooperativity factor	0.65
NCCCCCC(=O)O	uncharacterized protein (Pelagibacter ubique, UniProt Q4FKZ8)	differential scanning fluorimetry	Candidatus Pelagibacter ubique	in-house screen	–	thermal shift	2.07 °C
NCCN(C(=O)c1ccc(Cl)cc1Cl)c1ccc(OCc2ccc(Cl)cc2)cc1	GAP50	binding, surface plasmon resonance	–	1:1 binding model	–	kon	1860 M⁻¹ s⁻¹
CN(C)C(=O)C(CCN1CCC(O)(c2ccc(Cl)cc2)CC1)(c1ccccc1)c1ccccc1	Calcium-activated potassium channel subunit alpha-1, with LRRC26 γ1 subunit (KCNMA1, Homo sapiens, UniProt Q12791)	BK current, inhibitor, inside-out patch clamp	excised membrane patch	0.1 µM, γ1 subunit coexpressed, with: nominally 0 Ca2+ cytosolic	baseline: without loperamide	normalized Gmax	0.899
CC(C)(c1cc(Br)c(OCCO)c(Br)c1)c1cc(Br)c(OCCO)c(Br)c1	ATP2A1 (Oryctolagus cuniculus, UniProt P04191)	ATPase activity	rabbit microsomes	concentration not given, pH 7.3, with: ATP 5 mM	–	SERCA1 inhibition	inactive
OCC1CN(Cc2ccccc2)CC12CCN(CC1CCCCC1)CC2 (stereo not drawn)	Prelamin-A/C, isoform C (Homo sapiens, UniProt P02545)	CETSA	A549	100 µM, 24 h	–	delta Tm	0.8 °C
Cc1cc(C)cc(COc2ccc3c(C)c(CCC(=O)O)c(=O)oc3c2C)c1	GAP50	binding, surface plasmon resonance	–	1:1 binding model	–	kon	35800 M⁻¹ s⁻¹
CCCCC(CC)CNc1cc(=O)[nH]c(=O)[nH]1 (racemic)	FFAR4	agonist, β-arrestin recruitment	CHO cells	10 µM	–	activation	-1%
Nc1ncnc2c1ncn2[C@@H]1O[C@H](COP(=O)(O)CP(=O)(O)OP(=O)(O)O)[C@@H](O)[C@H]1O	P2X purinoceptor 1 (P2RX1, Homo sapiens, UniProt P51575, R139P)	calcium influx	–	10 nM	baseline: ionomycin response	calcium influx	0% and 1.13% and 0.679%
NC(N)=Nc1ccc(-c2ccc(-c3ccc(N=C(N)N)c(Cl)c3)o2)cc1Cl	GAP50	binding, surface plasmon resonance	–	1:1 binding model	–	kon	1560 M⁻¹ s⁻¹
CC[C@@H]1[C@H](F)C(=O)N[C@@H]1COc1nccc2cc(C(N)=O)c(OC)cc12	CAMK1D	ATP-site probe binding, ActivX profiling	THP-1 cell lysate	0.2 mM, Lys2 site	–	inhibition	5.2%

Compound	target	assay	test system	setting	how to read	measurement	result
Nc1nc2c(ncn2[C@@H]2O[C@H](COP(=O)(O)O)[C@@H](O)[C@H]2O)c(=O)[nH]1	GUK1 (Homo sapiens, UniProt Q16774, R44A)	binding, ITC	–	–	–	ΔG	-4.87 kcal/mol
O=c1cc(NCCCc2ccccc2)[nH]c(=O)[nH]1	FFAR4	agonist, β-arrestin recruitment	CHO cells	10 µM	–	activation	1%
O=C1NC(=O)C(c2cn(CCCO)c3ncccc23)=C1c1cnccn1	TRPM8	antagonist	HEK293	5 µM	baseline: control	remaining activity	106 ± 2.5%
c1ccc(C(NCc2cccnc2)(c2ccccc2)c2ccccc2)cc1	KCNQ1 (Homo sapiens, UniProt P51787)	whole-cell patch clamp	–	100 pM, at -120 mV	–	deactivation time constant	87 ± 22 ms
NCc1ccc(C(F)(F)F)cc1	Maoa (Rattus norvegicus, UniProt P21396)	–	–	pKa-corrected	–	log Kd	-4.8 M
NC(=O)NOCCCCCCCCCC[P+](c1ccccc1)(c1ccccc1)c1ccccc1.O=C([O-])C(F)(F)F	NADH dehydrogenase [ubiquinone] iron-sulfur protein 7, mitochondrial/NADH dehydrogenase [ubiquinone] iron-sulfur protein 2, mitochondrial/MT-ND1	complex I-dependent respiration, Seahorse XF96	HCT-116	3 µM, 24 h	baseline: control	oxygen consumption rate	90.2 ± 6.64%
NCc1ccc(F)cc1	MAOA (Homo sapiens, UniProt P21397)	substrate	–	pH 9.0, α,α-protio substrate	–	kcat	0.3 ± 0.0055 s⁻¹
C=CC(=O)N1CCC(COCC(=O)N2CCN(c3nc(-c4cnc(N)nc4C(F)F)nc(N4CCOC[C@@H]4C)n3)CC2)CC1	PLK3 (Homo sapiens, UniProt Q9H4B4)	KINOMEscan	–	1 µM	–	remaining binding	100%
O=c1cc(NCCc2ccccc2F)[nH]c(=O)[nH]1	FFAR4	agonist, β-arrestin recruitment	CHO cells	10 µM	baseline: 30 µM TUG-891	agonist effect	1 ± 1%
CC[C@@H](C)[C@@H](NC(=O)[C@@H](Cc1ccc(O)cc1)NC(=O)[C@H]1CCCN1C(=O)[C@@H](CCCNC(=N)N)NC(=O)[C@H](N)Cc1c[nH]cn1)C(=O)N[C@H](C)C(=O)N[C@H](Cc1c[nH]cn1)C(=O)N[C@H](CCCNC(=N)N)C(=O)N[C@@H](C(=O)N[C@H](Cc1ccc(O)cc1)C(=O)N[C@H](CO)C(=O)N[C@H](Cc1ccccc1)C(N)=O)C(C)C	Transferrin receptor protein 1 (Tfrc, Mus musculus, UniProt Q62351)	flow cytometry	MC-38	24 h, unit not given	baseline: 0 h	surface TFRC expression	1.01
Cc1cc2nc3[nH]c(=O)[nH]c(=O)c3nc2cc1C	T1, riboswitch RNA yjdF aptamer (Bacillus subtilis)	fluorescence titration	–	with: 380 nM lumichrome	–	Kd	8 µM
Cc1cc2c(c(=O)[nH]1)C(=O)O/C2=C\c1ccccc1OC(C)C	Dual specificity calcium/calmodulin-dependent 3',5'-cyclic nucleotide phosphodiesterase 1C, isoform PDE1C2 (PDE1C, Homo sapiens, UniProt Q14123)	enzyme activity, inhibitor	–	with: 3H-cGMP substrate	–	binding free energy	-9.08 kcal/mol
Fc1ccc(-c2nc3n(c2-c2ccncc2)CCS3)cc1	TRPM8	antagonist	HEK293	5 µM	baseline: control	remaining activity	85.7 ± 10.2%
Cc1nnc(NCc2cccc(Cl)c2)c2ccccc12	GAP50	binding, surface plasmon resonance	–	1:1 binding model	–	kon	25800 M⁻¹ s⁻¹
CCc1nc(-c2ccc(OC)cc2)[nH]c1-c1ccncc1	TRPM8	antagonist	HEK293	5 µM	baseline: control	remaining activity	100 ± 8.87%
Cc1[nH]c(N)nc1CCC(=O)c1ccccc1.Cl	HVCN1 (Homo sapiens, UniProt Q96D96)	proton current, inhibitor, inside-out patch clamp	Xenopus oocytes	dimeric channel	–	Hill coefficient	1.28 ± 0.04
Nc1ncnc2c1ncn2[C@@H]1O[C@H](COP(=O)(O)OP(=O)(O)O)[C@@H](O)[C@H]1O	GUK1 (Homo sapiens, UniProt Q16774)	ITC	–	concentration not given, with: ATPγS	–	ΔG of binding	-6.81 kcal/mol and -6.82 kcal/mol and -6.61 kcal/mol
COc1cc(F)ccc1-c1ncnc(Nc2cccc(C[S@](C)(=N)=O)c2)n1	CAMK1D	kinase activity	–	10 µM, with: 10 µM ATP	–	remaining activity	103%
O=C(CNc1cccc2c1C(=O)N(C1CCC(=O)NC1=O)C2=O)NCCCCCCN1CCc2c(c3ccccc3n2Cc2ccc(C(=O)NO)cc2)C1 (stereo not drawn)	HDAC10 (Homo sapiens, UniProt Q969S8)	degrader, western blot	MM1.S	5 µM, 24 h	–	degradation	88%
COc1cc(NC(=O)c2cccs2)c2ncccc2c1	3-oxoacyl-[acyl-carrier-protein] reductase FabG (fabG, Pseudomonas aeruginosa, UniProt O54438)	enzyme activity, inhibitor, NADPH fluorescence	–	reverse reaction, with: 3-OH-decanoyl-NAC, NADP	–	Hill slope	2
N=C1NC(=O)C2(CCc3ccc(Cl)cc32)C(=O)N1 (stereo not drawn)	GABA-A receptor; alpha-1/beta-3/gamma-2 (Homo sapiens, UniProt P14867+P18507+P28472)	–	–	300 µM	–	Emax	2%

Some of these lines once more:
Compound	target	assay	test system	setting	how to read	measurement	result
O=C(O)C1=CC(=C(c2ccc(O)c(C(=O)O)c2)c2ccc(O)c(C(=O)O)c2)C=CC1=O	P2X purinoceptor 3 (P2RX3, Homo sapiens, UniProt P56373)	patch clamp	HEK293	4 µM, unit not given	baseline: baseline	remaining current	0.094 ± 0.009
C#CCN(CCCN1CCN(c2ccc(F)cc2)CC1)Cc1ccc(C(=O)c2ccc([N+](=O)[O-])cc2)cc1	TMEM97 (Homo sapiens, UniProt Q5BJF2)	radioligand binding	RT-4 cell membranes	–	baseline: sigma1 Ki over sigma2 Ki	Ki ratio	4.18
CCCCCCCCC(=O)c1cc(O)c(O)c(O)c1	Nuclear receptor subfamily 4 group A member 2 (Homo sapiens, UniProt P43354)	reporter gene, full-length homodimer NurRE reporter	–	10 µM	baseline: vehicle	activation	0.71 fold
